{"data": "Results gathered from unrelated publications", "note": "Each numbered part is a random draw from the data of one study; scales do not carry over between parts. Positions count from the first letter of the parent shown.", "chain of UniProt Q05940 (whole entry, looked up)": "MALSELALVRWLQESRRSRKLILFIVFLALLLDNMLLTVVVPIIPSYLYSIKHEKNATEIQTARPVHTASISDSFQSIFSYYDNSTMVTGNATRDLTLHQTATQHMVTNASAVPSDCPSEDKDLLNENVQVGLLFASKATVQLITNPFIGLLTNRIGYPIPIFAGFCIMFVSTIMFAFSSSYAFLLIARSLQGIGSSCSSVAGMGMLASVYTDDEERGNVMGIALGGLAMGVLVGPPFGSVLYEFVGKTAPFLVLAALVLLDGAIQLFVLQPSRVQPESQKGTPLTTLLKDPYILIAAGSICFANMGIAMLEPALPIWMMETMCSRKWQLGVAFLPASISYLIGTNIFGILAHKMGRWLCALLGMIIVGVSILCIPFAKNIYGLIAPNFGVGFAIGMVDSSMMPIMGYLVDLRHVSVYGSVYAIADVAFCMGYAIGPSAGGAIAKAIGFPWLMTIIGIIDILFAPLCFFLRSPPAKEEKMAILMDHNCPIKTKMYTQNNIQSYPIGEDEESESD"}
{"data": "Study 1", "target": "inorganic phosphate, free oxyanion", "method": "microfluidic competitive inhibition", "medium": "in vitro, cell-free expressed", "concentration": "not given", "notes": "derived from inhibition constants, unchanged parent 615000 nM", "reading": "lower = stronger binding", "starting sequence": "PafA, mature enzyme, eGFP fusion (Elizabethkingia meningoseptica, UniProt Q9KJX5); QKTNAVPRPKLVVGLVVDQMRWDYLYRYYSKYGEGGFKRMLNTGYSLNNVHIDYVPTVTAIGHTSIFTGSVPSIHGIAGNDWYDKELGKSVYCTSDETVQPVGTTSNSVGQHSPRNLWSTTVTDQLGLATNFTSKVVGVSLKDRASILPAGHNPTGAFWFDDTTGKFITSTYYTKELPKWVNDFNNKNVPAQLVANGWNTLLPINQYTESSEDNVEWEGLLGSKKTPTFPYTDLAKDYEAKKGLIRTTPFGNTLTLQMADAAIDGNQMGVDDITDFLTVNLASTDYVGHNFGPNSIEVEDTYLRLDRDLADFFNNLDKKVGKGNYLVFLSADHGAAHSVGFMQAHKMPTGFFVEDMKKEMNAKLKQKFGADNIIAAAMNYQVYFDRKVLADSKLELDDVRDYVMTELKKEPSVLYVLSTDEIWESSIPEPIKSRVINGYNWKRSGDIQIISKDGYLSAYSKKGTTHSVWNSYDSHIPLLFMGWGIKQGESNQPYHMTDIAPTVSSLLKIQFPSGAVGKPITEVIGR"}
{"Substitution": "I449V", "phosphate dissociation constant [µM]": 613}
{"Substitution": "W483G", "phosphate dissociation constant [µM]": 602}
{"Substitution": "V194A", "phosphate dissociation constant [µM]": 572}
{"Substitution": "K518G", "phosphate dissociation constant [µM]": 471}
{"Substitution": "T253G", "phosphate dissociation constant [µM]": 526}
{"Substitution": "L244V", "phosphate dissociation constant [µM]": 693}
{"Substitution": "I147V", "phosphate dissociation constant [µM]": 728}
{"Substitution": "G288V", "phosphate dissociation constant [µM]": 471}
{"Substitution": "Y286G", "phosphate dissociation constant [µM]": 143}
{"Substitution": "K179G", "phosphate dissociation constant [µM]": 581}
{"Substitution": "D84V", "phosphate dissociation constant [µM]": 853}
{"Substitution": "Q257G", "phosphate dissociation constant [µM]": 607}
{"Substitution": "I509G", "phosphate dissociation constant [µM]": 380}
{"Substitution": "V468G", "phosphate dissociation constant [µM]": 364}
{"Substitution": "T419V", "phosphate dissociation constant [µM]": 747}
{"Substitution": "E406V", "phosphate dissociation constant [µM]": 648}
{"Substitution": "V327A", "phosphate dissociation constant [µM]": 629}
{"Substitution": "G69A", "phosphate dissociation constant [µM]": 657}
{"Substitution": "A336V", "phosphate dissociation constant [µM]": 462}
{"Substitution": "G243A", "phosphate dissociation constant [µM]": 563}
{"Substitution": "T68V", "phosphate dissociation constant [µM]": 363}
{"Substitution": "H337G", "phosphate dissociation constant [µM]": 313}
{"Substitution": "L141G", "phosphate dissociation constant [µM]": 1520}
{"Substitution": "E354G", "phosphate dissociation constant [µM]": 502}
{"Substitution": "I499G", "phosphate dissociation constant [µM]": 347}
{"data": "Study 2", "target": "CCNF, cyclin fold, Cln2 fusion (human)", "method": "yeast growth competition, sequencing", "medium": "yeast", "notes": "strong parent motif", "relative to": "not given", "reading": "higher = stronger binding", "starting sequence": "viral docking peptide; YKVKRRLVFGADD"}
{"Substitution": "K4H", "normalised enrichment score": 8.63}
{"Substitution": "L7D", "normalised enrichment score": 0.28}
{"Substitution": "F9W", "normalised enrichment score": 8.62}
{"Substitution": "V3E", "normalised enrichment score": 8.16}
{"Substitution": "F9H", "normalised enrichment score": 1.08}
{"Substitution": "R6H", "normalised enrichment score": 8.43}
{"Substitution": "L7H", "normalised enrichment score": 0.602}
{"Substitution": "F9I", "normalised enrichment score": 8.05}
{"Substitution": "V8M", "normalised enrichment score": 9.36}
{"Substitution": "D12P", "normalised enrichment score": 8.84}
{"Substitution": "R5V", "normalised enrichment score": 5.28}
{"Substitution": "V3M", "normalised enrichment score": 8.34}
{"Substitution": "L7V", "normalised enrichment score": 4.94}
{"Substitution": "D12R", "normalised enrichment score": 8.86}
{"Substitution": "F9N", "normalised enrichment score": 1.15}
{"Substitution": "A11E", "normalised enrichment score": 8.43}
{"Substitution": "D12V", "normalised enrichment score": 9.09}
{"Substitution": "D12Y", "normalised enrichment score": 8.74}
{"Substitution": "D12M", "normalised enrichment score": 9.12}
{"Substitution": "F9V", "normalised enrichment score": 5.49}
{"Substitution": "V3I", "normalised enrichment score": 9.07}
{"Substitution": "V3W", "normalised enrichment score": 8.02}
{"Substitution": "V8A", "normalised enrichment score": 9.26}
{"Substitution": "R5K", "normalised enrichment score": 8.21}
{"Substitution": "K4D", "normalised enrichment score": 7.52}
{"data": "Study 3", "target": "POU domain, class 5, transcription factor 1, POU domain (Pou5f1, Mus musculus, UniProt P20263, residues 131-289)", "method": "Spec-seq", "molecule type": "double-stranded DNA, one strand shown", "medium": "in vitro", "concentration": "not given", "notes": "whole probe, mean of replicates", "relative to": "not given", "reading": "lower = stronger binding", "constant ends, left off below": "GAGTCGTCTCGTCAGCAC … ATCCGTAGAGCACTCAGGTC", "chain of UniProt P20263 (131-289, looked up)": "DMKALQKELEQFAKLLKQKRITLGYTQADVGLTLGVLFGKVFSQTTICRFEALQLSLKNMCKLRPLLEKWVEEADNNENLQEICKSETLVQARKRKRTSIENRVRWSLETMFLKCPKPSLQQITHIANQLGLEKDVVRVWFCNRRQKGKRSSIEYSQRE"}
{"Strand": "ATCCCG", "relative binding energy [ln ratio]": 0.784}
{"Strand": "ATATCA", "relative binding energy [ln ratio]": -0.0717}
{"Strand": "ATGACA", "relative binding energy [ln ratio]": 0.34}
{"Strand": "ATAGAC", "relative binding energy [ln ratio]": 0.444}
{"Strand": "CGGATA", "relative binding energy [ln ratio]": 0.703}
{"Strand": "ATTGTC", "relative binding energy [ln ratio]": 0.48}
{"Strand": "ATCTTC", "relative binding energy [ln ratio]": 0.295}
{"Strand": "AACCTA", "relative binding energy [ln ratio]": 0.675}
{"data": "Other studies, line by line"}
{"Structure (SMILES)": "CC(C)[N+](C)(CCC(C(N)=O)(c1ccccc1)c1ccccc1)C(C)C", "target": "Synaptic vesicular amine transporter (SLC18A2, Homo sapiens, UniProt Q05940)", "test": "inhibitor", "setting": "literature data", "endpoint": "IC50", "value": "> 10 µM"}
{"note": "Some of these lines once more (study 2):"}
{"Substitution": "F9N", "normalised enrichment score": 1.15}
{"Substitution": "A11E", "normalised enrichment score": 8.43}
{"Substitution": "D12V", "normalised enrichment score": 9.09}
{"Substitution": "D12Y", "normalised enrichment score": 8.74}
{"Substitution": "D12M", "normalised enrichment score": 9.12}
